Results gathered from unrelated publications.
A part holds a random share of what one study measured.

Set 1
Target: Replicase polyprotein 1ab, nsp13 helicase (rep, Severe acute respiratory syndrome coronavirus 2, UniProt P0DTD1)
Mode: inhibitor
Concentration: 20 µM
| Structure (SMILES) | inhibition |
| --- | --- |
| N#Cc1cc(CN2CCC(Nc3ncnc4sc(Cl)cc34)CC2)ccc1F | 8.67% |
| CC=C1C(=O)C[C@H]2[C@@H]3CCC4=CC(=O)CC[C@]4(C)[C@H]3CC[C@]12C | 0.18% |
| CC(C)Oc1ccc(C(=O)N[C@H](CNC(=O)CN(C)C)Cc2ccc(-c3cn4cccc([C@H](C)O)c4n3)cc2)cc1Cl | 1.36% |
| O=C(O)c1cc(N2N=C(C(F)(F)F)/C(=C/c3ccc(-c4ccccc4)o3)C2=O)ccc1Cl | 35.6% |
| CON(C)C(=O)N1N=C(c2cc(F)ccc2F)S[C@@]1(CCCN)c1ccccc1 | 9.36% |
| O=C(Nc1ncc(SCCN2CCCC2)s1)[C@]1(c2ccc(S(=O)(=O)C3CC3)cc2)C[C@H]1C1CCCCC1 | 6.43% |
| NCCC(=O)N[C@@H](Cc1c[nH]cn1)C(=O)O | 29% |
| Cn1cc(-c2ccc3nnc(Sc4ccc5ncccc5c4)n3n2)cn1 | 8.56% |
| CC(C)=CCC/C(C)=C/CC/C(C)=C/CCC(=O)OC/C=C(\C)CCC=C(C)C | -17.3% |
| CN(C(=O)c1c(O)c2ccccc2n(C)c1=O)c1ccccc1 | -3.93% |
| NC[C@@](O)(c1ccc(Cl)cc1)c1ccc(-c2cn[nH]c2)cc1 | 4.74% |
| Cc1cccc(CC(=O)N2CCc3c2ccc(-c2cn(C)c4ncnc(N)c24)c3F)n1 | 7.65% |
| CCCOC(=O)c1ccc(O)cc1 | 12% |
| COc1cccc(CCc2ccccc2OCC(CN(C)C)OC(=O)CCC(=O)O)c1 (stereo not drawn) | -2.55% |
| Cc1cc(-c2nc(C(=O)Nc3cn(C4CCOCC4)nc3C(N)=O)co2)ccn1 | 3.7% |
| Clc1cccc(-n2nnnc2NCc2ccccc2Oc2ccccn2)c1Cl | 10.3% |
| O=C(O)c1ccccc1Nc1cccc(OCc2ccc3ccccc3n2)c1 | 3.2% |
| CCCCNc1c(C(=O)OCC)c(C)nc2c1cnn2CC | 3.14% |
| CN(C)Cc1cccc(N=C(c2ccccc2)c2c(O)[nH]c3cc(C(=O)N(C)C)ccc23)c1 | 3.17% |
| CCCCCCCCCCCCCCCc1cccc(OCC(=O)NCCO)c1 | -1.81% |
| Cc1ccc(-c2nn(C(C)(C)CNC(=O)c3ncccc3C)c3ncnc(N)c23)cc1 | 8.57% |
| CNC(=O)[C@H](Cc1ccccc1)NC(=O)[C@H](CC(C)C)[C@H](CSc1cccs1)C(=O)NO | -2.03% |

Set 2
Target: Replicase polyprotein 1ab, main protease (rep, Severe acute respiratory syndrome coronavirus 2, UniProt P0DTD1)
Read-out: enzyme activity
Mode: inhibitor
Notes: no DTT
| SMILES | IC50 [µM] |
| --- | --- |
| c1ccc2sc(SNC3CCCCC3)nc2c1 | 0.8 |
| C[n+]1c2cc(N)ccc2cc2ccc(N)cc21 | 5 |
| COc1ccnc(C[S+]([O-])c2nc3ccc(OC(F)F)cc3[nH]2)c1OC (stereo not drawn) | > 20 |

Set 3
Cell line: HEK-293T/ACE2
Concentration: concentration not given
Time: 16 (unit not given)
Baseline: vehicle
| Structure (SMILES) | viability [%] |
| --- | --- |
| CCCCCCOC(=O)NC(=N)c1ccc(NCc2nc3cc(C(=O)N(CCC(=O)OCC)c4ccccn4)ccc3n2C)cc1 | 95 |
| CN(N=O)C(=O)N[C@@H](C=O)[C@@H](O)[C@H](O)[C@H](O)CO | 100 |
| O=C(CCCCC(=O)Nc1c(I)cc(I)c(C(=O)O)c1I)Nc1c(I)cc(I)c(C(=O)O)c1I | 104 |
| C[C@]1(O)CC[C@H]2[C@@H]3CCC4=CC(=O)CC[C@]4(C)[C@@]3(F)[C@@H](O)C[C@@]21C | 102 |
| CCC(=O)O[C@]1(C(=O)CCl)[C@@H](C)C[C@H]2[C@@H]3CCC4=CC(=O)C=C[C@]4(C)[C@@]3(F)[C@@H](O)C[C@@]21C | 105 |

Set 4
Target: Histone acetyltransferase KAT6A, both winged helices, GST fusion (KAT6A, Homo sapiens, UniProt Q92794, residues 1-181)
Method: protein binding microarray
Molecule type: double-stranded DNA, one strand shown
Medium: in vitro
Concentration: not given
Notes: 8-mer, flanks averaged, mean of 2 arrays, mostly near background
Baseline: not given
Direction: higher = stronger binding
Residues (chain): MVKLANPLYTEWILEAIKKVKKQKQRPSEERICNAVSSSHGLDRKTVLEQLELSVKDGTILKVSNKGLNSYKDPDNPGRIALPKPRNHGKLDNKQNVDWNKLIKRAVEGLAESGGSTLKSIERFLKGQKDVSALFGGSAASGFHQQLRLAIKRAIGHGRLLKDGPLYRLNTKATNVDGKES
| Sequence | E-score |
| --- | --- |
| CTTCAAAC | -0.108 |
| GGCAGTCA | -0.0607 |
| TACCGCAA | 0.188 |
| TCCTAGAA | -0.106 |
| AAAGCATC | 0.0667 |
| CAGTGTTA | -0.102 |
| AAATCGTG | -0.0427 |
| CGATTGTA | 0.0646 |

Set 5
Target: Centromere-binding protein 1, full length, N-terminal tag (CBF1, Saccharomyces cerevisiae, UniProt P17106, residues 1-351)
UniProt P17106, sequence (whole entry, looked up): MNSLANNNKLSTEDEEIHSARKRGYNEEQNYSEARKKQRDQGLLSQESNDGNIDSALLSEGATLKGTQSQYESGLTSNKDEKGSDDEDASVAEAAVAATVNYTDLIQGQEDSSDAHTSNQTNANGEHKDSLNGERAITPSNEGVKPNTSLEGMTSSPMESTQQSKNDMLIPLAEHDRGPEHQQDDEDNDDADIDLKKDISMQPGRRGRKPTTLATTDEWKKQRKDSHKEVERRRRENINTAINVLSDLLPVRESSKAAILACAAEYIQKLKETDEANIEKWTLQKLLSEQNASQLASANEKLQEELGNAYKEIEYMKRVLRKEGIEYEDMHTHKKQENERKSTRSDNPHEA
Method: protein-binding microarray
Molecule type: double-stranded DNA, one strand shown
Medium: in vitro
Concentration: 0.8 µM
Notes: whole 60-bp probe, no competitor
Direction: higher = stronger binding
| Sequence | fluorescence intensity [a.u.] |
| --- | --- |
| GAACCCAAAGGGTTGCACGTTCTCTTCCGTCGATAGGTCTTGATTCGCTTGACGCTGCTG | 608 |
| GAATACACTAAAACACATGCACGCCACGGAGTATAGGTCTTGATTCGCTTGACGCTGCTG | 659 |
| CTACGGACCCTTCTCCACGTTTCGATCTTTGGCTTCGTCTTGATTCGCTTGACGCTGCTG | 500 |
| GAAAAACCTGCAATACTCGTGATGAATATTTAATAGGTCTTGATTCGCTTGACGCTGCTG | 1190 |
| CTACCACTCTGGAACGCCGTGACCAGCTCAGCCTTCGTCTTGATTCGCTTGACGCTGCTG | 630 |
| GAAGCTAGACAGTAGAACGTGTTTTGAAGCCAATAGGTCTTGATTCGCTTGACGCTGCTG | 561 |
| CTAGCACAGCAACATAACACCACCTTCTTTTAGTTCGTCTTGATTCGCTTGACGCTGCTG | 504 |
| CTAAATAACAAAAATCACGAAAAAAAAAAGCTTTTCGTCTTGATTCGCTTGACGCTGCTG | 524 |

Single results of other studies
Target: Hepatocyte nuclear factor 3-beta, forkhead domain (FOXA2, Homo sapiens, UniProt Q9Y261, residues 142-269)
Method: protein-binding microarray
Molecule type: hairpin DNA
Medium: in vitro
Concentration: not given
Notes: whole hairpin DNA, median over replicate spots
Baseline: not given
Direction: higher = stronger binding
Sequence (chain, as in one of the studies): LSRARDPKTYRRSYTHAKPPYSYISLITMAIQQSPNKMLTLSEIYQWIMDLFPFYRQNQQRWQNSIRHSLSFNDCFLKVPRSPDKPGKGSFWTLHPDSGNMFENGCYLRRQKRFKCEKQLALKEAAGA
| Sequence | median fluorescence |
| --- | --- |
| GAGGCCATGCGAACAACGCCTCCTGGCGTTGTTCGCATGGCCTCACACTC | 3380 a.u. |
| GAGGCCATGTCGCCAACGCCTCCTGGCGTTGGCGACATGGCCTCACACTC | 3390 a.u. |

For quick reference, copied from above (set 2):
| SMILES | IC50 [µM] |
| --- | --- |
| c1ccc2sc(SNC3CCCCC3)nc2c1 | 0.8 |
| COc1ccnc(C[S+]([O-])c2nc3ccc(OC(F)F)cc3[nH]2)c1OC (stereo not drawn) | > 20 |
| C[n+]1c2cc(N)ccc2cc2ccc(N)cc21 | 5 |
